{"data": "Measured values from different studies", "note": "Lines come from different studies, so protocols differ. Several values in a cell are separate wells, animals, samples, runs or records. ± marks the error that the study gave."}
{"Structure (SMILES)": "C#C[C@@]1(O)[C@@H](CO)O[C@@H](n2cc(F)c3c(N)ncnc32)[C@@H]1O", "cell line": "A498", "test": "SRB", "setting": "NCI-60 screen", "endpoint": "TGI", "result": "2270 nM"}
{"Structure (SMILES)": "NNc1nc(-c2ccc(Cl)cc2)c2c(NC(=O)c3ccccc3)nnc-2[nH]1", "cell line": "A498", "test": "SRB", "setting": "10 µM, NCI60 single-dose screen", "scale": "relative to: untreated", "endpoint": "cell growth", "result": "114%"}
{"Structure (SMILES)": "CCn1cc(-c2cc(Cn3ccoc3=N)cc3c2CCN([C@@H](C)c2cc(OC)ccn2)C3=O)c(C(F)(F)F)n1", "cell line": "A498", "test": "cell growth, inhibitor", "setting": "120 h", "endpoint": "EC50", "result": "> 30000 nM"}
{"Structure (SMILES)": "Nc1ncnc2c1ncn2CCN1C(=O)C(=O)c2cc(Cl)ccc21", "cell line": "A498", "test": "cell growth, SRB", "setting": "72 h", "endpoint": "IC50", "result": "17.9 ± 4.24 µg/mL"}
{"Structure (SMILES)": "Cc1cc(-c2ccccc2)n(-c2nc(-c3ccc(Cl)cc3)c3c(NC(=O)c4ccccc4)nnc-3[nH]2)n1", "cell line": "A498", "test": "SRB", "setting": "10 µM, NCI60 single-dose screen", "scale": "relative to: untreated", "endpoint": "cell growth", "result": "92.1%"}
{"Structure (SMILES)": "CCCCCCCCOC(=O)C(=O)CCC(=O)O", "cell line": "OCI-Ly1", "setting": "1 µM, 120 h", "endpoint": "viability", "result": "111%"}
{"Structure (SMILES)": "NC(=S)N/N=C1\\C(=O)N(CCn2ncc3c(=O)[nH]cnc32)c2ccc(F)cc21", "cell line": "A498", "test": "cell growth, SRB", "setting": "72 h", "endpoint": "IC50", "result": "41.7 ± 19.2 µg/mL"}
{"Structure (SMILES)": "Cc1cc(C)n(-c2nc(-c3ccc(Cl)cc3)c3c(NC(=O)c4ccccc4)nnc-3[nH]2)n1", "cell line": "A498", "test": "SRB", "setting": "10 µM, NCI60 single-dose screen", "scale": "relative to: untreated", "endpoint": "cell growth", "result": "119%"}
{"Structure (SMILES)": "C#C[C@@]1(O)[C@@H](CO)O[C@@H](n2cc(Br)c3c(N)ncnc32)[C@@H]1O", "cell line": "A498", "test": "SRB", "setting": "NCI-60 screen", "endpoint": "TGI", "result": "828 nM and 417 nM"}
{"Structure (SMILES)": "COc1ccc2c(c1)C(=O)C(=O)N2CCn1cnc2c(N)ncnc21", "cell line": "A498", "test": "cell growth, SRB", "setting": "72 h", "endpoint": "IC50", "result": "60.4 ± 6.48 µg/mL"}
{"Structure (SMILES)": "Cc1cc(=O)[nH]n1-c1nc(-c2ccc(Cl)cc2)c2c(NC(=O)c3ccccc3)nnc-2[nH]1", "cell line": "A498", "test": "SRB", "setting": "10 µM, NCI60 single-dose screen", "scale": "relative to: untreated", "endpoint": "cell growth", "result": "115%"}
{"Structure (SMILES)": "O=C1C(=O)N(CCn2ncc3c(=O)[nH]cnc32)c2ccc(Cl)cc21", "cell line": "A498", "test": "cell growth, SRB", "setting": "72 h", "endpoint": "IC50", "result": "5.6 ± 1.57 µg/mL"}
{"Structure (SMILES)": "O=C1NCCc2[nH]c(-c3ccncc3)cc21", "cell line": "A498", "test": "MTS", "setting": "NCI60 panel", "endpoint": "IC50", "result": "> 10000 nM"}
{"Structure (SMILES)": "COc1cnc2cccc(N3CCc4c(cc(Cn5ccnc5C)cc4-c4cn(C)nc4C(F)(F)F)C3=O)c2c1", "cell line": "A498", "test": "cell growth, inhibitor", "setting": "120 h", "endpoint": "EC50", "result": "1820 nM"}
{"Structure (SMILES)": "Cn1cncc1C1=CN(c2ncnc3[nH]cnc23)CCS1", "cell line": "A498", "setting": "renal cancer", "endpoint": "GI50", "result": "4800 nM"}
{"Structure (SMILES)": "Nc1ncnc2c1ncn2CCN1C(=O)C(=O)c2cc(F)ccc21", "cell line": "A498", "test": "cell growth, SRB", "setting": "72 h", "endpoint": "IC50", "result": "54 ± 7.81 µg/mL"}
{"Structure (SMILES)": "C#CCCC(=O)SCCNC(=O)CCNC(=O)[C@H](O)C(C)(C)COP(=O)(O)OP(=O)(O)OC[C@H]1O[C@@H](n2cnc3c(N)ncnc32)[C@H](O)[C@@H]1OP(=O)(O)O", "cell line": "OCI-Ly1", "setting": "1 µM, 120 h", "endpoint": "viability", "result": "99.2%"}
{"note": "Repeated from above:"}
{"Structure (SMILES)": "C#C[C@@]1(O)[C@@H](CO)O[C@@H](n2cc(Br)c3c(N)ncnc32)[C@@H]1O", "cell line": "A498", "test": "SRB", "setting": "NCI-60 screen", "endpoint": "TGI", "result": "828 nM and 417 nM"}
